# Experimental data pooled from the literature.
# Parts stem from different laboratories: compare values within a part only.

# Series 1
# Cell line: HEK-293T
# Observed: pseudovirus infection
# Technique: FDA-approved drug library screen
# Organism: VSV pseudotyped with SARS-CoV-2 spike
# Concentration: 10 µM
# Time: 16 h
# Baseline: vehicle-treated
Structure (SMILES),GFP-positive cells [%]
CC(C)C[C@H](CN)CC(=O)O,99.9
Cc1onc(-c2ccccc2)c1-c1ccc(S(N)(=O)=O)cc1,103
CC(C)(C)C(=O)OCOP(=O)(COCCn1cnc2c(N)ncnc21)OCOC(=O)C(C)(C)C,86
C[N+]1(C)CCCC(OC(=O)C(O)(c2ccccc2)c2ccccc2)C1 (stereo not shown),77.4
CC(C(=O)O)c1ccc2c(c1)[nH]c1ccc(Cl)cc12 (stereo not shown),79.7
C#C[C@]1(O)CC[C@H]2[C@@H]3CCc4cc(O)ccc4[C@H]3CC[C@@]21C,104

# Series 2
# Target: Replicase polyprotein 1ab, main protease (rep, Severe acute respiratory syndrome coronavirus 2, UniProt P0DTD1)
# Observed: enzyme activity
# Mode: inhibitor
# Concentration: 20 µM
# Setting: hit confirmation
Structure (SMILES),inhibition
O=C(O)c1ccccc1-c1c2cc(I)c(=O)c(I)c-2oc2c(I)c(O)c(I)cc12,12.9%
Oc1c(I)cc(I)c2cccnc12,33%
O=c1cccc2cc(O)c(O)c(O)c2c1O,111%
O=S(=O)(O)c1cc(I)c(O)c2ncccc12,43.7%
COc1ccc2c(c1)nc([S+]([O-])Cc1ncc(C)c(OC)c1C)[n]2[Mg][n]1c([S+]([O-])Cc2ncc(C)c(OC)c2C)nc2cc(OC)ccc21 (stereo not shown),99.7%

# Series 3
# Target: RING finger protein unkempt homolog, zinc fingers 1-6, GST-SBP tag (UNK, Homo sapiens, UniProt Q9C0B0, residues 30-357)
# Sequence of UniProt Q9C0B0 (30-357, looked up): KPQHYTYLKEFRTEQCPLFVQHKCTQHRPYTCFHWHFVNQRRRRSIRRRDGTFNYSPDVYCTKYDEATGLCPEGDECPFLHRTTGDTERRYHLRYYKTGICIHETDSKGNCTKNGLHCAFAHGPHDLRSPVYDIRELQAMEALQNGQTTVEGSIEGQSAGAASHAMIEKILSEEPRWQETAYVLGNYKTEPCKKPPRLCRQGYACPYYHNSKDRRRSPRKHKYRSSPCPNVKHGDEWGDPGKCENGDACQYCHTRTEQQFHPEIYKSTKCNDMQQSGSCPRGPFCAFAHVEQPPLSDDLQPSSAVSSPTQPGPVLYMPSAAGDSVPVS
# Technique: RNA Bind-n-Seq
# Molecule type: RNA
# Sample: in vitro
# Concentration: not given
# Setting: RNA with constant flanks, human and mouse sites, ends assumed
# Baseline: input RNA pool
# Direction: higher = stronger binding
Strand,bound/input enrichment [ratio]
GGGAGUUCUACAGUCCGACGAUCGCUCCUCCCCGCUCUGCAGCCUGGGGACACUGGGCUGGGACCAGAAUCCAGCUUUCUUUUAAAACUCUCAGUGUAACUGUAUCCCGUGACAUUUCAUUUUUUUUAAAUAGUGUAUUUUUUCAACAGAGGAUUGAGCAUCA,3.15
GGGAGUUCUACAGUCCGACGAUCGAAUUCAAAGCUGAAUGUGAGACAUUAAAGGAUGACACAGAGAAGCUUAAACAGCUUGAAACAGAGCAGACUAUCUUGCCAUCUCUUCGACCUACCAUUGACAUUAAUGUCAACAGCCAGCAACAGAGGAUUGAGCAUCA,0.176
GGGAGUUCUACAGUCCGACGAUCCCCCAAUACCAUUUGCAGGUCUGGAACUGCACUCUCUUUUUUAAAAAACAUGUAUACAUUUUAGGGCUGUAGAUUUAUUUUCCUGGUUUUGUUUUUCAUUGCUGACUUUUGAGCACAGAACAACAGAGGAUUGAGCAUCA,1.65
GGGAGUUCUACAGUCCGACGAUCUUGACUUCUUUCCAGUCCACGUGUGUAUAUAAUGAUAUCUAUAUUUUUGCCCAGGUCUGGGUAUUGCUCCUGCCCAGACCCUGACAUCCCUUUCCACUGUGUGUGUGACCAUGCUGGGGGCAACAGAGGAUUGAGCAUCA,0.645
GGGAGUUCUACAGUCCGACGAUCGUUCCCCUGUUGCUAAAUAAUGUGAAAGGGGAGCCCCCGGAGGACUCGUUAUCUGUAGAUCACUUCCAAACACAAACUGAGCCAGUGGACUUGUCAAUAAACAAAGCCAGGACGUCCCCUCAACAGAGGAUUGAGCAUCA,0.122
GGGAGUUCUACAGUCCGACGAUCGUGGGUGCCUCGGCUCGGCUUUCCCCGGCGCUGGCUGGGCUCAGCGGCCCCUGAGCCCAAGCGACACACGCCCCGCGGUCCCCGAUCCGGCCCCUGGGAGAGCCGCGCCGUUCUGGAACCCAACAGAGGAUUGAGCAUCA,0.187
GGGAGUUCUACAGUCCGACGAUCGAAGACCCAUACCCACACAAGUUCCAUGUAGACAUCUCACUCACUGACUUCAUCCAAAAAUAUAGUCACCUGCAGCCUGGGGAUCACCUGACUGACAUCACCUUAAAGGUGGCAGGUAGGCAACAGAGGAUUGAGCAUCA,0.456
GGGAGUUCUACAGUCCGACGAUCCUGUGUAAGUAGUGGAUACAACAUAGGAACAUCCAAGGUACUGACUGCAGCUUUAGAUACGUGAUUAGUGUGAGAGUCACAUUCUCUGUGUGAAGAUACAUGUCUUUGAGUAAAUUUCAUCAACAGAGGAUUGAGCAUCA,0.96

# Series 4
# Target: Histone acetyltransferase KAT6A, winged helix 2, GST fusion (KAT6A, Homo sapiens, UniProt Q92794, residues 85-181)
# Technique: protein binding microarray
# Molecule type: double-stranded DNA, one strand shown
# Sample: in vitro
# Concentration: not given
# Setting: 8-mer, flanks averaged, mean of 2 arrays, mostly near background
# Baseline: not given
# Direction: higher = stronger binding
# Target sequence (chain): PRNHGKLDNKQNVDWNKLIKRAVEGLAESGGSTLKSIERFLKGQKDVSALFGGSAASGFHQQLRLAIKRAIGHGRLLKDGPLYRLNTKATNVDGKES
Strand,E-score
GTACGAAC,0.15
TGCACGCA,-0.0327
ATGGTCTC,-0.11
CAAAACCG,0.169
CCGCTTTC,-0.0287
CCAAGCGA,0.0763
CTCGAGAG,-0.0154
GTGCGGTA,0.279

# Series 5
# Target: Replicase polyprotein 1ab, nsp13 helicase (rep, Severe acute respiratory syndrome coronavirus 2, UniProt P0DTD1)
# Mode: inhibitor
# Concentration: 20 µM
Compound,inhibition
Cc1nnc2n1-c1sc(CCC(=O)N3CCOCC3)cc1C(c1ccccc1Cl)=NC2,3.6%
O=C(O)CCC(=O)C(=O)O,3.83%
CC(O)(C(=O)Nc1ccc(S(=O)(=O)c2ccccc2)cc1)C(F)(F)F (stereo not shown),-4.67%
CCCn1c(=O)[nH]c(=O)c2[nH]cnc21,10.6%
CCC1(C2=NCCN2)Cc2ccccc2O1 (stereo not shown),2.24%
CC1(C)C[C@@H]1C(=O)N/C(=C\CCCCSC[C@H](N)C(=O)O)C(=O)O,-4.15%
CC[C@@]1(O)C(=O)OCc2c1cc1n(c2=O)Cc2cc3c(CN(C)C)c(O)ccc3nc2-1,5.31%
Cc1oc(=O)oc1COC(=O)C1=C([C@H]2CCCO2)S[C@@H]2[C@@H]([C@@H](C)O)C(=O)N12,2.43%
COc1cccc(NC(=O)/C=C/c2ccc(Cl)cc2)c1,1.48%
C[N+]1(C)CCC(=C(c2ccccc2)c2ccccc2)CC1,-3.18%
C[C@@]1(O)[C@H](O)[C@@H](CO)O[C@H]1n1ccc(N)nc1=O,5.43%
O=C(O[C@H]1[C@H](OC(=O)c2cccnc2)[C@@H](OC(=O)c2cccnc2)[C@H](OC(=O)c2cccnc2)[C@@H](OC(=O)c2cccnc2)[C@H]1OC(=O)c1cccnc1)c1cccnc1,-2.18%
CCOc1ccc(S(=O)(=O)O)c2cccnc12,-1.07%
Cc1c(F)cc(C(=O)NC2CC2)cc1-c1c(F)cn2c(C(C)(C)C)nnc2c1F,0.71%
COc1ccc(S(=O)(=O)Nc2cccnc2Nc2ccc(O)cc2)cc1,36.1%
COc1ccc(C(=O)NCc2cccnc2)cc1C(=O)NCc1cccnc1,-1.89%
CC(C)(C)C(=O)NCCCC(=O)O,1.43%
CCOC(=O)c1cnc2c(cnn2CC)c1NN=C(C)C,5.37%
COc1cc(NS(C)(=O)=O)ccc1Nc1c2ccccc2nc2ccccc12,32.3%
c1ccc(OCc2ccc(CCCN3CCOCC3)cc2)cc1,2.2%
C[C@H](NC(=O)CNC(=O)c1cccc(Cl)c1)c1ccccc1,6.01%
CN(C)CCOC(=O)C(c1ccccc1)C1(O)CCCC1 (stereo not shown),-3.25%
CCC(C(=O)O)c1ccc(CC(C)C)cc1 (stereo not shown),4.28%
COc1ccc(-c2nc3cc(C4=NNC(=O)CC4C)ccc3[nH]2)cc1 (stereo not shown),-5.47%
C[C@@H]1COCCN1c1cc(C2(S(C)(=O)=O)CC2)nc(-c2cccc3[nH]ccc23)n1,6.58%

# Some of these lines once more (series 5):
Compound,inhibition
CCCn1c(=O)[nH]c(=O)c2[nH]cnc21,10.6%
CCC1(C2=NCCN2)Cc2ccccc2O1 (stereo not shown),2.24%
CC1(C)C[C@@H]1C(=O)N/C(=C\CCCCSC[C@H](N)C(=O)O)C(=O)O,-4.15%
CC[C@@]1(O)C(=O)OCc2c1cc1n(c2=O)Cc2cc3c(CN(C)C)c(O)ccc3nc2-1,5.31%
Cc1oc(=O)oc1COC(=O)C1=C([C@H]2CCCO2)S[C@@H]2[C@@H]([C@@H](C)O)C(=O)N12,2.43%
COc1cccc(NC(=O)/C=C/c2ccc(Cl)cc2)c1,1.48%
